Experimental data from different studies.
Every numbered part comes from another study and shows a few of its results, in no order. Substitutions count along the parent as printed.

Sample 1
Target: CCND3, cyclin fold, Cln2 fusion (human)
Method: yeast growth competition, sequencing
Matrix: yeast
Notes: weak parent motif
Relative to: not given
Reading: higher = stronger binding
Quantity: normalised enrichment score
Starting sequence: viral docking peptide; KGVKRKLFAEDSS; partner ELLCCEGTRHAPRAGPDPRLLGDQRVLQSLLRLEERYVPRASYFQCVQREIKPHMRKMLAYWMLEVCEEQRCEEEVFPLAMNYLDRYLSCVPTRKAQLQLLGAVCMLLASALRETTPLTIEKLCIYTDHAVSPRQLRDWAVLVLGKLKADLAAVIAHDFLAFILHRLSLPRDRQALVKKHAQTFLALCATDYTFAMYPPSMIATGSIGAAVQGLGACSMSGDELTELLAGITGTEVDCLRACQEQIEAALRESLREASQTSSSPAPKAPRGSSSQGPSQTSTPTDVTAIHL
KGVKRKLFPEDSS [A9P]: -0.00672
KGVKRKLKAEDSS [F8K]: 0.335
KGVTRKLFAEDSS [K4T]: -0.119
KGTKRKLFAEDSS [V3T]: 0.475
KGVKDKLFAEDSS [R5D]: 0.0884
KCVKRKLFAEDSS [G2C]: 0.18
KGVKRKLFAMDSS [E10M]: 0.29

Sample 2
Target: HLA class I histocompatibility antigen, A alpha chain, allele A*25:01 (Homo sapiens, UniProt P04439)
Effect on: peptide-MHC binding
Molecule type: peptide
Concentration: concentration not given
Quantity: binding
RVHFHRFMY: inactive
SYMMDDLELI: inactive
KLINTLFHA: inactive
NIYETEFFM: inactive
AFMATNKAY: inactive
LFPELECFF: inactive
SPGDNSAKF: inactive
GRYNLISPK: inactive
KLKSVGKAY: inactive
LTIVFVPEV: inactive
FGAAVSLLF: inactive
FWAWSVLRV: inactive
SLFNWLWYE: inactive
YLQAKSQVL: inactive
AIDDFCLFA: inactive
YKSRCYVGL: inactive
MPMSMPIPM: inactive
ELYENKPDV: inactive
EVIRATYPS: inactive
FGAQMGWPV: inactive
RAYAAMHLW: inactive
FRYKSRCYV: inactive
VILYFMYRK: inactive
DMYFCHFYK: inactive
QLFPELECF: inactive

Sample 3
Target: RNA binding protein fox-1 homolog 2, RRM domain, GST-SBP tag (RBFOX2, Homo sapiens, UniProt O43251-10, residues 100-194)
Method: RNA Bind-n-Seq
Molecule type: RNA
Matrix: in vitro
Concentration: 365 nM
Notes: natural RNA segment, single round, ends assumed
Relative to: no-protein control
Reading: higher = stronger binding
Quantity: RBNS enrichment (R)
All sequences stand within: GGGAGUUCUACAGUCCGACGAUC … UGGAAUUCUCGGGUGCCAA
Residues (chain): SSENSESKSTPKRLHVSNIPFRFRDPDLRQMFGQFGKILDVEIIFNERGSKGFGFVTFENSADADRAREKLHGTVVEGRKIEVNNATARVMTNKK
GAGAAAAAUUUGAACGAGGCUAGUGCAAUGUUUUGCUGAUAGAUUACAUUGUUAGGGAGCUGGUGAUUUUUUGCCAUGGUCGUAUCGUGGACAGCUUUUCCGUGGAAAUU: 0.474
UAGAGAGAGAGAAGCUGGAAGCGCAGCGAGCUCAGGAGAACGUGGAGCUGCCCCAGCUGAAGGGGGCUGUGUAUGUGUCUGAGGAGCUUAGUAAGACUCUGGUUCACACC: 1.2
AAGCUUUGAGUUAAAGGAUUUGACGACCACAAAAAACCAAAACCAAAACCAAAAACAAAAACCCAGUGGAAGAUCUCAGACAAAAAUCCAACUGGACGGGCUACUCACAA: 0.535
UGAUUUUAUCAAAACUUCUAAAAUUUAAAUUACGUGGUAAAAGAUCUGUAAAAGGCUGCAUAAAUGUUAGUUGGCACAUAAAGACAAUUGUAGAAGUUGAAAAAUGAUUG: 0.813
UCUCUCUAGGGAAUCUCAUUUGUUACAGGUGAGAAGACAGAGGGUUUUAUGGUGCCUGAGUUAGUCCUGUGCCUAACCAGUGGAGUUUCCGUCUCUGUGCUUGCUAAUAG: 0.398
GCUCUCUCUGGGUGAGUGUGGGGUCUGGGUGUCCUUUGCAUUCCCCUCCUCACCCCAGGUGCCUUAAGACAGCCCAGUUCUAACCUGAUAUUCAUGACCAAACUAGCCCU: 0.572
UUUUUACCAUACCAACUUCUCUCCCAUCUCUAGGUGGCUCAGUCCAUGGCCACUCCCUGCCCCCAGCCUGGCUGGACAGCAAGGAAUCCACAGCCCACACGUGAGCUCCC: 0.345
GGGGAAGCGAAUGUUUCUGAACAUAAGGCUCUAAGACUCGUGUGAGGCUGAGAGUGAAUGGCAGUGGAGAGUGGGCUGAGAGAGGGCAGCUGGCACAUCCAGGGUCAUGG: 1.13

Sample 4
Cell line: HEK-293T-ACE2-TMPRSS2
Method: cell count
Concentration: 10 µM
Quantity: viability
Cc1nc(C(=O)N2C[C@@H](COCC3CC3)[C@H](c3ccncc3)C2)co1: 109%
CN(Cc1cnccn1)C(=O)c1ccc(CSc2ncccn2)o1: 80%
CS(=O)(=O)c1ncc(Cl)c(C(=O)N2CCN(C(c3ccccc3)c3ccccc3)CC2)n1: 67%
CC(C)CN1CC(C(=O)NCCS(=O)(=O)N2CCCC2)CC1=O (stereo not drawn): 65%
Clc1cc2c(c3ncccc13)OCN(C1CCCC1)C2: 126%
O=C(NCCc1ccc(Cl)cc1)C(=O)c1ccc[nH]1: 81%

Sample 5
Target: CREB3, bZIP domain (human)
Method: DHFR protein complementation
Matrix: yeast
Notes: single substitutions, most at no-binding floor
Relative to: wild-type JUN-FOS pair
Reading: higher = stronger binding
Quantity: binding fitness
Starting sequence: JUN, bZIP domain (human); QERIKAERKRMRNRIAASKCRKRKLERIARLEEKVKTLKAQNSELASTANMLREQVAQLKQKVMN; partner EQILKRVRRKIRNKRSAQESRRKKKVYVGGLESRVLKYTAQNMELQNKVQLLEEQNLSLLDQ
S43W: -1.51 natural log
Q55K: -1.53 natural log
N42E: -1.52 natural log
L52Y: -1.51 natural log
E44I: -1.37 natural log
E54D: -1.27 natural log
A46W: -1.54 natural log
A40R: -1.39 natural log

A few entries again (sample 4):
CC(C)CN1CC(C(=O)NCCS(=O)(=O)N2CCCC2)CC1=O (stereo not drawn): 65%
Clc1cc2c(c3ncccc13)OCN(C1CCCC1)C2: 126%
CN(Cc1cnccn1)C(=O)c1ccc(CSc2ncccn2)o1: 80%
CS(=O)(=O)c1ncc(Cl)c(C(=O)N2CCN(C(c3ccccc3)c3ccccc3)CC2)n1: 67%
O=C(NCCc1ccc(Cl)cc1)C(=O)c1ccc[nH]1: 81%
Cc1nc(C(=O)N2C[C@@H](COCC3CC3)[C@H](c3ccncc3)C2)co1: 109%
